Experimental data pooled from the literature.
Protocols differ between the studies behind these lines. Numbers after ± are the reported error.

Compound | cell line | test | conditions | quantity | value
CCn1cc(-c2cc(Cn3ccnc3)cc3c2CCN([C@H](c2cc(OC)ccn2)C2CC2)C3=O)c(C(F)(F)F)n1 | JHOC5 | cell growth | 120 h | EC50 | 5560 nM
CCOC(=O)c1ccc(NC2CCCCC2)c(N)c1 | PANC-1 | protection from ferroptosis, PrestoBlue | 24 h, added: erastin 10 µM | EC50 | 70 nM
COc1cnc2cccc(N3CCc4c(cc(Cn5ccnc5C)cc4-c4cn(C)nc4C(F)(F)F)C3=O)c2c1 | RPMI-7951 | cell growth, inhibitor | 120 h | EC50 | > 30000 nM
CCOc1nc(-c2cccc(O)c2)cc(-c2cc3cc(OC)ccc3nc2N2CCOCC2)c1C#N | WI-38 | cell viability, MTT | 72 h | EC50 | 85 ± 1 nM
O=C(CCCCCCC(=O)NO)NO | HBL-1 | – | 0.5 µM, 120 h | viability | 144%
O=C1CCC(=O)N1Cc1cc2nccc(-c3cc(Cl)cc4c3N([C@@H]3CNC5(CCC5)C3)CCC4)c2s1 | MM1.S | protein induction, measured: p53 | adjusted for plasma unbound fraction | EC50 | 0.265 µg/mL
CCCOc1nc(-c2cccc(O)c2)cc(-c2cc3ccccc3nc2N2CCOCC2)c1C#N | WI-38 | cell viability, MTT | 72 h | EC50 | 121 ± 0.1 nM
CCCC(CCC)C(=O)O | HBL-1 | – | 0.5 µM, 120 h | viability | 124%
Nc1n[nH]c2nc(-c3cccc(O)c3)cc(-c3cc4cc(Cl)ccc4nc3N3CCOCC3)c12 | WI-38 | cell viability, MTT | 72 h | EC50 | 133 ± 3 nM
OCCN(CCO)c1nc(N2CCCCC2)c2nc(N(CCO)CCO)nc(N3CCCCC3)c2n1 | Jurkat T cells, wild type | [3H]-thymidine incorporation, inhibitor | 3 h | EC50 | 68.7 nM
CCOc1nc(-c2cccc(O)c2)cc(-c2cc3ccccc3nc2N2CCOCC2)c1C#N | WI-38 | cell viability, MTT | 72 h | EC50 | 38 ± 0.3 nM
C[C@]12CCCN1CC1=NNC(=O)c3cc(F)cc4[nH]c2c1c34 | KATO III | – | added: temozolomide | EC50 | > 10000 nM
C=C(NC(=O)C(=C)NC(=O)c1csc(C2=N[C@@H]3c4csc(n4)[C@H]4NC(=O)c5csc(n5)[C@H]([C@](C)(O)[C@@H](C)O)NC(=O)[C@H]5CSC(=N5)/C(=C/C)NC(=O)[C@H]([C@@H](C)O)NC(=O)c5csc(n5)[C@]3(CC2)NC(=O)[C@H](C)NC(=O)C(=C)NC(=O)[C@H](C)NC(=O)[C@H]([C@@H](C)CC)N[C@@H]2C=Cc3c([C@H](C)O)cc(nc3[C@H]2O)C(=O)O[C@@H]4C)n1)C(N)=O | SCC-90 | cell viability | – | EC50 | 1100 nM
CCn1cc(-c2cc(Cn3ccoc3=N)cc3c2CCN([C@@H](C)c2cc(OC)ccn2)C3=O)c(C(F)(F)F)n1 | ML1 | cell growth, inhibitor | 120 h | EC50 | 25500 nM
CCCNC(=O)[C@H]1O[C@@H]1C(=O)N[C@H](C(=O)N1CCC[C@H]1C(=O)OC)[C@@H](C)CC | MDA-MB-231 | cell viability, MTT | 72 h, dark | EC50 | 21000 ± 5100 nM

A few entries again:
Compound | cell line | test | conditions | quantity | value
Nc1n[nH]c2nc(-c3cccc(O)c3)cc(-c3cc4cc(Cl)ccc4nc3N3CCOCC3)c12 | WI-38 | cell viability, MTT | 72 h | EC50 | 133 ± 3 nM
CCn1cc(-c2cc(Cn3ccoc3=N)cc3c2CCN([C@@H](C)c2cc(OC)ccn2)C3=O)c(C(F)(F)F)n1 | ML1 | cell growth, inhibitor | 120 h | EC50 | 25500 nM
